Assay results collected from several papers.
Every numbered part comes from another study and shows a few of its results, in no order. Positions count from the first letter of the parent shown.

Sample 1
Target: FOSL1, bZIP domain (human)
Method: DHFR protein complementation
Medium: yeast
Notes: single substitutions, most at no-binding floor
Reference: wild-type JUN-FOS pair
Reading: higher = stronger binding
Starting sequence: JUN, bZIP domain (human); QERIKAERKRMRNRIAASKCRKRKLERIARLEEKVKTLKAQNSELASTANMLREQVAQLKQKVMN; partner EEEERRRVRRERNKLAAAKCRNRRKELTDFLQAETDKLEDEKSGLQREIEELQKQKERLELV
| Change | binding fitness |
| --- | --- |
| L38M | -0.778 natural log |
| A49P | -1.43 natural log |
| T37W | -0.562 natural log |
| A40Y | -0.713 natural log |
| L31P | -1.36 natural log |
| E44N | -0.681 natural log |

Sample 2
Target: CCNA1, cyclin fold, Cln2 fusion (human)
Method: yeast growth competition, sequencing
Medium: yeast
Notes: weak parent motif
Reference: not given
Reading: higher = stronger binding
Starting sequence: PKN2 docking peptide (human); VSAVQKLDFSDTM; partner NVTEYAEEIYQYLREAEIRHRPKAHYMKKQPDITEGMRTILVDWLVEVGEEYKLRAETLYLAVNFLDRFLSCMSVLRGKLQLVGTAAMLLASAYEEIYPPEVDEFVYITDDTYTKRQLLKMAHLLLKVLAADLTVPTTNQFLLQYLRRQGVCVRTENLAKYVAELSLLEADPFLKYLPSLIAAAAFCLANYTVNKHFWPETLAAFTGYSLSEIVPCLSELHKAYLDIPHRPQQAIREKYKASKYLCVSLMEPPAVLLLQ
| Change | normalised enrichment score |
| --- | --- |
| M13F | 0.0985 |
| V1F | 0.39 |
| F9E | 0.258 |
| T12C | 0.332 |
| V1P | 0.351 |
| D11V | 0.232 |
| K6Q | 0.518 |
| V1R | 0.144 |

Sample 3
Target: Histone acetyltransferase KAT6A, winged helix 2, GST fusion (KAT6A, Homo sapiens, UniProt Q92794, residues 85-181)
Method: protein binding microarray
Form: double-stranded DNA, one strand shown
Medium: in vitro
Concentration: not given
Notes: 8-mer, flanks averaged, mean of 2 arrays, mostly near background
Reference: not given
Reading: higher = stronger binding
Target sequence (chain): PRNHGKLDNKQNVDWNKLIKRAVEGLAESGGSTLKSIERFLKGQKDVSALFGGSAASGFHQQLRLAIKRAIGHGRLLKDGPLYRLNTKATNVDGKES
| Sequence | E-score |
| --- | --- |
| TACCCGTA | -0.141 |
| TCCTACAA | 0.164 |
| CAGCGGAG | 0.172 |
| CGACTCGC | 0.0878 |
| AGCTAGAA | -0.0111 |
| AATTTAGC | -0.082 |
| GATACCTA | -0.0778 |

Single results of other studies
| Substance | target | assay | system | conditions | how to read | measurement | value |
| --- | --- | --- | --- | --- | --- | --- | --- |
| PhoQ, residues 284 288 289 292 302 303 TYGVAM | PhoP, residues 12 14 15 18 19 LHSVW (Escherichia coli, UniProt P23836) | Sort-seq, item: YFP reporter | E. coli | PhoQ-PhoP variant library, with: 10 µM Mg2+ | reference: high Mg2+ state, higher = stronger signaling | fold induction | 8.68 |
